Assay results collected from several papers.
Numbers after ± are the reported error.

Compound | test | test system | conditions | scale | endpoint | value
CN1CC[C@@H](c2c(O)cc(O)c3c(=O)cc(-c4ccc(C(F)(F)F)cc4Cl)oc23)[C@@H]1CO | measured: Anemia | relapsed or refractory haematological malignancies | oral, dose not given, all arms | – | patients with adverse event | 22.5%
C[C@@H]1NC(=O)[C@H](CCCCNC(=O)CO/N=C/C(=O)NCCCC[C@@H]2NC(=O)[C@@H](Cc3ccccc3)NC(=O)[C@H](CC(=O)O)NC(=O)CNC(=O)[C@H](CCCNC(=N)N)NC2=O)NC(=O)CNC(=O)[C@@H]2CCCN2C(=O)[C@H](CCCCNC(=O)CO/N=C/C(=O)NCCCC[C@@H]2NC(=O)[C@@H](Cc3ccccc3)NC(=O)[C@H](CC(=O)O)NC(=O)CNC(=O)[C@H](CCCNC(=N)N)NC2=O)NC(=O)[C@H](CCCCNC(=O)[C@H](CCCCN)NC(=O)[C@H](Cc2ccccc2)NC(=O)CNC(=O)CN2CCCNCCNCCCNCC2)NC(=O)[C@H](CCCCNC(=O)CO/N=C/C(=O)NCCCC[C@@H]2NC(=O)[C@@H](Cc3ccccc3)NC(=O)[C@H](CC(=O)O)NC(=O)CNC(=O)[C@H](CCCNC(=N)N)NC2=O)NC(=O)CNC(=O)[C@@H]2CCCN2C(=O)[C@H](CCCCNC(=O)CO/N=C/C(=O)NCCCC[C@@H]2NC(=O)[C@@H](Cc3ccccc3)NC(=O)[C@H](CC(=O)O)NC(=O)CNC(=O)[C@H](CCCNC(=N)N)NC2=O)NC1=O [copper-64 labelled] | – | normal mice, lung | intravenous, 0.74 MBq, 3 h post-injection | – | tissue uptake | 9.38 ± 1.63 %ID/g
COc1ccc(C[C@@H]2NC(=O)[C@@H](CC(C)C)NC(=O)CNC(=O)[C@H](CC(C)C)NC(=O)[C@@H](CC(C)C)NC(=O)[C@H]3CCCN3C2=O)cc1 | LC/MS | horizontal lipid bilayer | 10 µM, 1 h, room temperature, 1% DMSO in PBS | – | Papp | 140 ± 50 ×10⁻⁶ cm/s
O=C(C1CCCCC1)N1CC(=O)N2CCc3ccccc3[C@@H]2C1 | – | NMRI mouse, female, S. mansoni-infected, plasma | oral, 400 mg/kg, dosed as racemate | – | Cmax of (R)-enantiomer | 6.3 µM
COc1ccc(CCC2CCCC(CCc3ccc(OC)cc3)N2C[C@@H](O)CO)cc1.Cl (stereo in doubt) | – | rabbit Purkinje fibres | 0.03 µM, cycle length 0.5 s | baseline: baseline | APD90 change | 9.7 ± 0.9%
CCc1ccc(CC/C=C/c2ccc3c(c2)C(=O)CC3)cc1 | – | Sprague-Dawley rat, male | oral, 450 mg/kg/day, 14 days | – | GGT serum activity | 1.33 U/L
COc1ncccc1-c1cnn2ccc(N3CCN(C(=O)OC(C)C)CC3)nc12 | – | rat, CCI cold allodynia model, brain | oral, 10 mg/kg, 240 min | – | drug concentration | 3.7 µM
C=CC(=O)N1CC[C@H](n2nc(C#Cc3cc(OC)cc(OC)c3)c3c(N)ncnc32)C1 | – | patients with advanced solid tumours | oral, dose not given, Stomatitis, any grade, QD, all patients | – | adverse drug reaction incidence | 11.6%
O=C(O)CCC(CP(=O)(O)O)C(=O)O (stereo not shown) | – | rat plasma | 8 µg/mL, freeze-thaw cycle 3 at -80 °C | – | measured concentration | 7.66 ± 0.33 µg/mL
COS(C)(=O)=O | alkaline comet | male Hsd:ICR (CD-1) mouse, liver | oral, 40 mg/kg/day, positive control | – | tail DNA | 17.4%
COC[C@@H](CC(C)C)NC(=O)c1ccc(C)c(C)c1 | – | bone marrow erythrocytes, mouse Hsd:ICR (CD-1), male | oral, 624 mg/kg, 24 h | – | PCE to total erythrocyte ratio | 0.485
N=C(CC(O)c1cc2c(F)cc(F)cc2c2cc(C(F)(F)F)ccc12)Nc1ccc(Br)cc1 (stereo not shown) | – | human blood | 50 ng/mL, 30 min | – | blood-to-plasma ratio | 1 ± 0.08
COc1cc2c(Oc3ccc4[nH]c(C)cc4c3F)ccnc2cc1OCC1(N)CC1 | – | paediatric recurrent refractory sarcoma | 8 mg/kg | – | grade 3 Appendicitis | 0%
